Published values collected from several papers.
“And” joins repeats or separate records; there may be more than shown. ± gives the spread as reported. In brackets after ≈: the same amount, converted by molar mass.

| Structure (SMILES) | organism | assay | test system | setting | how to read | measurement | value |
| --- | --- | --- | --- | --- | --- | --- | --- |
| CC(C)=CCc1c(-c2ccc(O)cc2O)oc2c3c(cc(O)c2c1=O)OC(C)(C)C=C3 | Bovine alphaherpesvirus 1 | viral replication | MDBK | – | – | IC50 | 0.14 µM |
| [2H]C([2H])([2H])C1(C([2H])([2H])[2H])NC(=O)N(c2ccc(F)c(C(F)(F)F)c2)C1=O | Schistosoma mansoni | – | adult, infected NMRI mice | oral, 100 mg/kg single dose | – | worm burden reduction | 98% |
| Cc1ncc([N+](=O)[O-])n1CCO | Fusobacterium nucleatum | – | – | – | – | MIC90 | 0.25 µg/mL (≈ 1.46 µM) |
| CCn1c(=O)c(-c2cc[nH]n2)cc2c(C)nc(N)nc21 | Enterovirus A71 | RT-qPCR | RD | post-entry | relative to: CC50 over IC50 | selectivity index | 41.4 |
| CC[C@H](C)[C@H](NC(=O)[C@H](C)NC(=O)[C@H](CCCCN)NC(=O)[C@H](CC(C)C)NC(=O)[C@H](C)NC(=O)[C@@H](NC(=O)[C@H](Cc1c[nH]cn1)NC(=O)[C@H](CC(C)C)NC(=O)[C@@H](NC(=O)[C@@H](NC(=O)[C@H](CCCCN)NC(=O)[C@H](C)NC(=O)[C@H](C)NC(=O)[C@H](CO)NC(=O)[C@H](CCCCN)NC(=O)[C@H](Cc1ccccc1)NC(=O)[C@@H](NC(=O)[C@H](CCCCN)NC(=O)[C@H](CC(C)C)NC(=O)[C@H](Cc1ccccc1)NC(=O)[C@H](CO)NC(=O)[C@H](CCCCN)NC(=O)[C@H](Cc1c[nH]c2ccccc12)NC(=O)[C@H](CCCCN)NC(C)=O)[C@@H](C)O)[C@@H](C)O)C(C)C)[C@@H](C)O)C(=O)N[C@@H](CO)C(=O)N[C@@H](CO)C(N)=O | Proteus | – | – | 20 strains | – | MIC50 | > 64 µg/mL |
| CN[C@H](CC(C)C)C(=O)N[C@H]1C(=O)N[C@@H](CC(N)=O)C(=O)N[C@H]2C(=O)N[C@H]3C(=O)N[C@H](C(=O)N[C@H](C(=O)O)c4cc(O)cc(O)c4-c4cc3ccc4O)[C@H](O)c3ccc(c(Cl)c3)Oc3cc2cc(c3O[C@@H]2O[C@H](CO)[C@@H](O)[C@H](O)[C@H]2O[C@H]2C[C@](C)(N)[C@H](O)[C@H](C)O2)Oc2ccc(cc2Cl)[C@H]1O | Staphylococcus aureus | – | CAAS-2019-CAAS-2019-09 clinical blaZ-resistant isolate, PBS | – | – | MBC | 4 µg/mL |
| CCOC(=O)C1=C(CN2CCOCC2)NC(c2nccs2)=NC1c1ccc(F)cc1Br (stereo not shown) | Hepatitis B virus | refers to: HBV pgRNA | chronic HBV infection patients | oral, 240 mg/day, 28 days, with: ritonavir 100 mg/day | relative to: baseline | change in serum pgRNA | -1.78 log10 copies/mL |
| Nc1ncnc2c1ncn2[C@@H]1O[C@@H]2COP(=O)(O)O[C@H]3[C@@H](O)[C@H](n4cnc5c(=O)[nH]cnc54)O[C@@H]3COP(=O)(O)O[C@H]2[C@H]1O | West Nile virus | RNA sequencing Reactome analysis, refers to: Nicotinate metabolism (R-HSA-196807) | HFF-1 | concentration not given, upregulated pathways, with: West Nile virus infection | relative to: WNV-infected without compound | fold enrichment | 7.92 |
| Nc1ncnc2c([C@@H]3N[C@H](CO)[C@@H](O)[C@H]3O)c[nH]c12 | Rhinovirus A | viral replication | HRV2 HGP | 94.7 µM | – | inhibition | 94.8% |
| Cc1c2c(nn1C)CSCc1cc(n(C)n1)CSc1cc(c3ccccc3c1)OCCCc1c(C(=O)O)n(C)c3c-2c(Cl)ccc13 | Staphylococcus aureus | label-free proteomics, refers to: ald1 | SA113 | concentration not given | relative to: untreated | log2 fold change | -4.02 |
| CS(=O)(=O)CCCn1c(Cn2c(=O)n(CC(F)(F)F)c3ccncc32)cc2cc(Cl)ccc21 | respiratory syncytial virus | RT-qPCR | hospitalized infants 1-24 months, nasal swab | oral, 2, 1.5 or 1 mg/kg daily, day 14, low dose by age cohort | relative to: placebo | LS mean difference vs placebo | -0.35 log10 copies/mL |
| Cn1c(=O)ccc2ccc(F)c(CCNC[C@H]3CN(c4cnc5c(n4)NC(=O)CO5)C(=O)O3)c21 | Achromobacter spp. | – | – | – | – | MIC50 | 0.06 µg/mL (≈ 0.128 µM) |
| NC(=O)c1ncn([C@@H]2O[C@H](CO)[C@@H](O)[C@H]2O)n1 | Dengue virus | viral replication | BHK-21, DENV3 | 120 h | – | EC50 | 61 µM |
| C[N+]1=C2C=C(N/C=C/c3ccc(O)cc3)C(=O)c3[nH]cc(c32)CC1 | Saccharomyces cerevisiae | cell growth, liquid culture | BY4741 | 100 µM, 24 h | – | inhibition | 8.7% |
| Cc1c(COC2CCC(C(F)(F)F)CC2)c(C(=O)Nc2cccc(OC(F)(F)F)c2)nn1CC(F)(F)F (stereo not shown) | Schistosoma mansoni | microscopic viability scoring | newly transformed schistosomula | 10 µM, 72 h, prescreen | – | viability reduction | 6.9% |
| CC(C)[C@H](NC(=O)[C@H](CCCNC(=N)N)NC(=O)[C@H](Cc1c[nH]c2ccccc12)NC(=O)[C@H](CCCNC(=N)N)NC(=O)[C@H](Cc1c[nH]c2ccccc12)NC(=O)[C@H](Cc1c[nH]c2ccccc12)NC(=O)[C@H](Cc1c[nH]c2ccccc12)NC(=O)[C@H](CCCNC(=N)N)NC(=O)[C@H](Cc1c[nH]c2ccccc12)NC(=O)[C@H](CCCNC(=N)N)NC(=O)CN)C(N)=O | Candida albicans | broth microdilution | 17546, RPMI 1640-MOPS | 48 h, 30 °C | – | MIC | 8 µM (≈ 13.8 µg/mL) |

| Structure (SMILES) | organism | assay | test system | setting | how to read | measurement | value |
| --- | --- | --- | --- | --- | --- | --- | --- |
| COc1cc2c(cc1OCc1ccccc1)oc(=O)c1c(O)cc(OCc3ccccc3)cc12 | Schistosoma mansoni | microscopic viability scoring | newly transformed schistosomula | 10 µM, 72 h, prescreen | – | viability reduction | 14.3% |
| C[C@@H](O[C@H]1OCCN(Cc2n[nH]c(=O)[nH]2)[C@H]1c1ccc(F)cc1)c1cc(C(F)(F)F)cc(C(F)(F)F)c1 | Human immunodeficiency virus 1 | viral replication | PBMC, subtype F isolate from Romania, X4/R5, SI | – | – | IC50 | 9.53 µM |
| CC(=O)O[C@@H]1CC[C@@]2(C)[C@H](CC[C@@H]3[C@@H]2CC[C@]2(C)[C@@H](C4=CC(=O)OC4)CC[C@]32O)C1 | Schistosoma mansoni | microscopic viability score | newly transformed schistosomula | 10 µM, 72 h | – | viability reduction | 100% |
| CNCC(=O)N[C@@H](CO)C(=O)N[C@H]1[C@H](O)[C@@H](O)[C@H](n2ccc(N)nc2=O)O[C@@H]1C(N)=O | Orthotospovirus tomatomaculae | viral infection, half-leaf method | Nicotiana glutinosa | 500 µg/mL | – | inactivation activity | 64.7 ± 2.8% |
| CC(C)C[C@H](NC(=O)[C@H](CCN)NC(=O)[C@H](CCN)NC(=O)[C@@H](Cc1ccccc1)NC(=O)[C@H](CC(C)C)NC(=O)[C@H](CCN)NC(=O)[C@H](CCN)NC(=O)[C@@H](CCN)NC(=O)[C@@H](N)CSCCOC(=O)C(C)(C)C)C(N)=O | Acinetobacter calcoaceticus | BHI agar spot plating | – | 24 h, 37 °C | – | MBC | > 128 µM |
| C[C@@H]1C[C@H](O)[C@]2(O)O[C@@H]3C[C@@]4(C=O)[C@@H](CC[C@@H]5[C@@H]4CC[C@]4(C)[C@@H](C6=CC(=O)OC6)CC[C@]54O)C[C@H]3O[C@@H]2O1 | Schistosoma mansoni | microscopic viability score | adult worms | 1 µM, 72 h | – | viability effect | 97% |
| COC(=O)N[C@H](C(=O)N1CCC[C@H]1c1ncc(-c2ccc(-c3ccc(-c4cnc([C@@H]5CCCN5C(=O)[C@@H](NC(=O)OC)C(C)C)[nH]4)cc3)cc2)[nH]1)C(C)C | hepatitis C virus | HCV replicon | – | 50% effect level, with: IFN-α, ratio 2.5:1 | – | combination index | 0.88 and 0.69 |
| O=C(CCCn1c(SCCOc2ccccc2)nc2ccccc21)N1CCCC1 | Schistosoma mansoni | microscopic viability scoring | newly transformed schistosomula | 10 µM, 72 h, prescreen | – | viability reduction | 0% |
| C[C@]12CC[C@@H]3c4ccc(O)cc4CC[C@H]3[C@@H]1CC[C@@H]2O | Arabidopsis thaliana | – | shoots | 1 µM | – | ABA level | 45.3 pmol/g dry weight and 43.4 pmol/g dry weight and 41 pmol/g dry weight |
| CCC(/N=N/c1ccc(Br)c2ccccc12)=C1SCCCS1 | Schistosoma mansoni | microscopic viability scoring | newly transformed schistosomula | 10 µM, 72 h, prescreen | – | viability reduction | 24.1% |
| N=C(N)c1ccc(OCCC(CCOc2ccc(C(=N)N)cc2)c2ccccc2)cc1 (stereo not shown) | Escherichia coli | checkerboard | mcr-1 polymyxin-resistant | unit not given, with: rifampicin | lower = stronger synergy | FICI | ≤ 0.063 |
| CC(C)(C)c1cc(O)c2cc(Cc3ccccc3)c(=O)oc2c1 | Schistosoma mansoni | microscopic viability scoring | newly transformed schistosomula | 10 µM, 72 h, prescreen | – | viability reduction | 100% |
| CC(C)C[C@H](NC(=O)[C@H](CCCNC(=N)N)NC(=O)[C@H](Cc1c[nH]c2ccccc12)NC(=O)[C@H](CCCNC(=N)N)NC(=O)[C@H](Cc1c[nH]c2ccccc12)NC(=O)[C@H](Cc1c[nH]c2ccccc12)NC(=O)[C@H](Cc1c[nH]c2ccccc12)NC(=O)[C@H](CCCNC(=N)N)NC(=O)[C@H](Cc1c[nH]c2ccccc12)NC(=O)[C@H](CCCNC(=N)N)NC(=O)CN)C(N)=O | Candida albicans | broth microdilution | CGMCC 2.209, RPMI 1640-MOPS | 48 h, 30 °C, with: NaCl 150 mM | – | MIC | 64 µM (≈ 112 µg/mL) |
| Oc1cccc(NCC(F)(F)C(F)(F)C(F)(F)C(F)(F)C(F)(F)C(F)(F)F)c1 | Schistosoma mansoni | microscopic viability scoring | newly transformed schistosomula | 10 µM, 72 h, prescreen | – | viability reduction | 13.8% |
| COc1cnc(OC)n2nc(NS(=O)(=O)c3c(OCC(F)F)cccc3C(F)(F)F)nc12 | Arabidopsis thaliana | – | Col-0, seed germination, dark | 50 µg/mL, 7 days, 22 °C | – | root length inhibition | 100% |
